Assay results pooled from the literature.
Every numbered part comes from another study and shows a few of its results, in no order. Substitutions count along the parent as printed.

Set 1
Target: Histone acetyltransferase KAT6A, winged helix 2, GST fusion (KAT6A, Homo sapiens, UniProt Q92794, residues 85-181)
Method: protein binding microarray
Molecule type: double-stranded DNA, one strand shown
Sample: in vitro
Concentration: not given
Notes: 8-mer, flanks averaged, mean of 2 arrays, mostly near background
Baseline: not given
Direction: higher = stronger binding
Residues (chain): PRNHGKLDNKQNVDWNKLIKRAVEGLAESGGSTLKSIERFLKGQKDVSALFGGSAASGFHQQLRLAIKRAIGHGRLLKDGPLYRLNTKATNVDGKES
For `GGTTTCGA`, the E-score was 0.173.
`CGAAATAG` gave an E-score of 0.0492.
`AAGAGGAA` gave an E-score of 0.0258.
For `AAGCAGGC`, the E-score was 0.0219.
With `CGAGGGTC` the E-score was 0.0387.
The E-score of `TACTAAAA` is reported as 0.0813.
For `AACTTATT`, the E-score was -0.0174.
With `AAGCGGTC` the E-score was 0.111.
For `ATGGTAAA`, the E-score was -0.0979.
`CACAGTGG` gave an E-score of 0.0982.
For `GTTATAAC`, the E-score was -0.106.
`CGATTTAA` gave an E-score of 0.0567.
With `CGTAAAGC` the E-score was -0.174.
For `AATCATCT`, the E-score was -0.167.
`CTAAATCA` has an E-score of -0.0359.
With `ACAATAGA` the E-score was -0.0209.
The E-score of `AGGAACCC` is reported as 0.0183.
With `AGGATGTG` the E-score was -0.0591.
The E-score of `GCCAGTCC` is reported as 0.0288.
`AAATTTAA` gave an E-score of 0.131.
With `ACCAGGAC` the E-score was 0.0442.
`CCTGTCCC` gave an E-score of 0.0311.
`ACAGTACT` has an E-score of -0.0109.

Set 2
Target: ABI1, truncated, D143A, DHFR fusion (Arabidopsis thaliana)
Method: DHFR PCA, deep sequencing
Sample: yeast
Notes: methotrexate growth selection, single substitutions
Added: (+)-ABA 58 µM
Baseline: wild-type fitted maximum
Direction: higher = stronger binding
Starting sequence: PYL1, truncated, DHFR fusion (Arabidopsis thaliana); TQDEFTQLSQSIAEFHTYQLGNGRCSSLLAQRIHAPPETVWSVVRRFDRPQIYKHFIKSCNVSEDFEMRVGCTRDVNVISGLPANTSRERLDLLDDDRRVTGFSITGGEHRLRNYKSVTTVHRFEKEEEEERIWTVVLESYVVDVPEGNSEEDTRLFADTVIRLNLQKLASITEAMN
`E139Q`: “relative binding score” 85.4%.
`M176H` — result for “relative binding score”: 79.7%.
`W41Y`: “relative binding score” 13.3%.
Under “relative binding score”, `G148N` is recorded as 75.7%.
`F47D`: “relative binding score” 1.3%.
`T17A` — result for “relative binding score”: 76.7%.
Under “relative binding score”, `V137K` is recorded as -17.9%.
Under “relative binding score”, `S42I` is recorded as 35.1%.
`Q167D` — result for “relative binding score”: 70.6%.
`P146V`: “relative binding score” 37.4%.
For `I12M`, “relative binding score” read 67%.
`R49H`: “relative binding score” 76.8%.
`Q31M`: “relative binding score” 57.5%.
Under “relative binding score”, `V62R` is recorded as 26%.
For `C25V`, “relative binding score” read 92.7%.

Set 3
Target: Prothrombin, mature alpha-thrombin (F2, Homo sapiens, UniProt P00734)
Method: aptamer microarray, sandwich
Molecule type: DNA with 2'F-ANA
Sample: in vitro
Concentration: 200 nM
Notes: whole 15-mer aptamer, many near background
Added: Cy3 exosite-II aptamer, 400 nM
Direction: higher = stronger binding
Sequence: GGTTGGTGTGGTTGG
`2'F-ANA at 3 8 9 10 12 13 15`: “mean fluorescence intensity” 515 a.u.
`2'F-ANA at 6 12 15` — result for “mean fluorescence intensity”: 814 a.u.
Under “mean fluorescence intensity”, `2'F-ANA at 6 7 8 9 10 11 12 15` is recorded as 174 a.u.
`2'F-ANA at 1 2 3 4 5 10 11 13 14`: “mean fluorescence intensity” 47.1 a.u.
For `2'F-ANA at 2 3 5 7 9 12 13 15`, “mean fluorescence intensity” read 133 a.u.
`2'F-ANA at 1 2 5 7`: “mean fluorescence intensity” 56.7 a.u.
Under “mean fluorescence intensity”, `2'F-ANA at 1 2 3 5 7 8 13 14 15` is recorded as 48.5 a.u.
For `2'F-ANA at 1 2 4 5 7 10 13 15`, “mean fluorescence intensity” read 48 a.u.
For `2'F-ANA at 2 3 9 11 12`, “mean fluorescence intensity” read 988 a.u.
For `2'F-ANA at 1 2 3 4 5 6 7 8 10 12 13 15`, “mean fluorescence intensity” read 51.6 a.u.
Under “mean fluorescence intensity”, `2'F-ANA at 1 5 6 7 10 11` is recorded as 47.3 a.u.
For `2'F-ANA at 1 7 8 9 11 12 13 14 15`, “mean fluorescence intensity” read 70.8 a.u.
`2'F-ANA at 1 2 3 5 6 7 8 9 10 13 15`: “mean fluorescence intensity” 54.3 a.u.
Under “mean fluorescence intensity”, `2'F-ANA at 1 2 6 7 9 11 12 13` is recorded as 155 a.u.
Under “mean fluorescence intensity”, `2'F-ANA at 1 3 5 8 9 10 11 15` is recorded as 48.7 a.u.
`2'F-ANA at 6 7 8 13 15` — result for “mean fluorescence intensity”: 444 a.u.
Under “mean fluorescence intensity”, `2'F-ANA at 1 3 4 8 11 12 14` is recorded as 97.2 a.u.
`2'F-ANA at 4 5 6 7 9 10 13 14 15`: “mean fluorescence intensity” 92 a.u.
`2'F-ANA at 2 4 8 9 10 13 14` — result for “mean fluorescence intensity”: 61.3 a.u.
`2'F-ANA at 1 2 4 6 7 9 10 13 14 15`: “mean fluorescence intensity” 50.1 a.u.
Under “mean fluorescence intensity”, `2'F-ANA at 1 4 5 6 7 8 9 10` is recorded as 47.8 a.u.
`2'F-ANA at 2 3 4 8 9 10 11 12 13 14 15` — result for “mean fluorescence intensity”: 150 a.u.
Under “mean fluorescence intensity”, `2'F-ANA at 1 2 3 5 6 7 8 9 11 13 14` is recorded as 46.4 a.u.
`2'F-ANA at 1 2 7 8 9 11 14 15` — result for “mean fluorescence intensity”: 123 a.u.

Set 4
Target: Sal-like protein 4, full length isoform A (SALL4, Homo sapiens, UniProt Q9UJQ4, residues 1-1053)
UniProt Q9UJQ4, sequence (whole entry, looked up): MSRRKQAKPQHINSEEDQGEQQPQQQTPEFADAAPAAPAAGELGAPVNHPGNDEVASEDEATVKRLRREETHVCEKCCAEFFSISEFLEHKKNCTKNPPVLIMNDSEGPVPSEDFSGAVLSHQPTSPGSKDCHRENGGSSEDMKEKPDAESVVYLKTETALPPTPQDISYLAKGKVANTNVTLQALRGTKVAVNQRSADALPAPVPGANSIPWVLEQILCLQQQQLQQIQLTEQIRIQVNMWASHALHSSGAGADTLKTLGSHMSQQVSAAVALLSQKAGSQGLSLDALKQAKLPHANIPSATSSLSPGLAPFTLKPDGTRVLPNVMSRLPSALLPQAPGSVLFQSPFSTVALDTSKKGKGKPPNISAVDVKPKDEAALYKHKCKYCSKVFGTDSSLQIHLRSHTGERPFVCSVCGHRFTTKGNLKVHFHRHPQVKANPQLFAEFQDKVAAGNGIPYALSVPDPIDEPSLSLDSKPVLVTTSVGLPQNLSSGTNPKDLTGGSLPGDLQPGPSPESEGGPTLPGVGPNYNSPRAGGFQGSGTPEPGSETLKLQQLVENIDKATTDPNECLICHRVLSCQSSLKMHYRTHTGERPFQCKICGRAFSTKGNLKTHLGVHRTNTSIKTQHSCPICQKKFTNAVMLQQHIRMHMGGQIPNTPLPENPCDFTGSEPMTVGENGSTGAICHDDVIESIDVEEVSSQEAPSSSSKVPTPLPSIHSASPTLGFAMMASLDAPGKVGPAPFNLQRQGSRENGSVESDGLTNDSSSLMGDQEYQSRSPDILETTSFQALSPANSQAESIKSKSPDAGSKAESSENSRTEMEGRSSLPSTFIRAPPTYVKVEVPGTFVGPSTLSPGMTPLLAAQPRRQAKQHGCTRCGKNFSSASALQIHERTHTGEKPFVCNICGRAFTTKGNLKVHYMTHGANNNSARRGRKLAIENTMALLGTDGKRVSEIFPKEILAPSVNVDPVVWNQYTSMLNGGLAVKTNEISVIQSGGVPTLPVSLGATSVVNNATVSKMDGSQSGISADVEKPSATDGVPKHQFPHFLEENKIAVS
Method: universal PBM
Molecule type: double-stranded DNA, one strand shown
Sample: in vitro
Concentration: 600 nM
Notes: 8-mer, flanks averaged, mean of replicates
Direction: higher = stronger binding
With `GAGTTCCA` the E-score was -0.105.
The E-score of `TAGGCAAA` is reported as 0.0956.
`AGGTGAAG` has an E-score of -0.0231.
For `AGGAACAT`, the E-score was 0.156.
With `GAACGGTC` the E-score was -0.196.
`CCTACGCC` has an E-score of -0.279.
With `AATTCGCG` the E-score was 0.00299.
`GTACTTCA` has an E-score of 0.178.
The E-score of `ATGTGAAC` is reported as 0.131.
The E-score of `CCCCGAGA` is reported as -0.169.
`CCTCTGAC` gave an E-score of -0.163.
The E-score of `TCACGCCA` is reported as -0.109.
For `ATTTTGCG`, the E-score was 0.201.
The E-score of `CTAGCTAG` is reported as -0.0493.
The E-score of `CAAGATCC` is reported as -0.0467.
The E-score of `CCACACCC` is reported as -0.173.
For `CAGACGCG`, the E-score was -0.381.
`AAGCTTAA` has an E-score of 0.195.
The E-score of `CGGACACA` is reported as -0.231.
`CCTACAAC` gave an E-score of 0.0576.
With `ATTTTTTC` the E-score was 0.368.
`AGTATGCC` gave an E-score of -0.0607.
With `ACGATCAG` the E-score was -0.00598.

Set 5
Target: OGT, full length, His-tagged (human)
Method: phage display, sequencing
Sample: in vitro
Concentration: 1 µg OGT
Notes: single substitutions, 15-mer displayed peptide, unchanged parent 19.6
Baseline: input library
Direction: higher = stronger binding
Starting sequence: peptide; TAPFYPPAYQIQVFK
With `TAPFYPPDYQIQVFK [A8D]` the fold enrichment was 6.91 fold.
For `TAFFYPPAYQIQVFK [P3F]`, the fold enrichment was 18.1 fold.
The fold enrichment of `TAPFYPPFYQIQVFK [A8F]` is reported as 13.9 fold.
For `TAPFYPPAYQIQVRK [F14R]`, the fold enrichment was 15.8 fold.
With `FAPFYPPAYQIQVFK [T1F]` the fold enrichment was 19.5 fold.
`TAPFYPPAYQQQVFK [I11Q]` has a fold enrichment of 0.668 fold.
`TAPFYPPAYQIQVAK [F14A]` has a fold enrichment of 6.04 fold.
For `EAPFYPPAYQIQVFK [T1E]`, the fold enrichment was 14.1 fold.
For `TAPFYPPARQIQVFK [Y9R]`, the fold enrichment was 0.785 fold.
For `TAPQYPPAYQIQVFK [F4Q]`, the fold enrichment was 11 fold.
`TAPFYPLAYQIQVFK [P7L]` gave a fold enrichment of 0.602 fold.
With `TAPMYPPAYQIQVFK [F4M]` the fold enrichment was 19.8 fold.
For `TAPFYPPAYQIQWFK [V13W]`, the fold enrichment was 26.4 fold.
`TAPFYPIAYQIQVFK [P7I]` has a fold enrichment of 1.42 fold.
With `TAPFYPPAFQIQVFK [Y9F]` the fold enrichment was 3.46 fold.
With `TAPFYPPAYQIAVFK [Q12A]` the fold enrichment was 2.14 fold.
`TTPFYPPAYQIQVFK [A2T]` has a fold enrichment of 21.7 fold.
The fold enrichment of `TAPFPPPAYQIQVFK [Y5P]` is reported as 1.27 fold.
`TAPFYPPAYQIQEFK [V13E]` gave a fold enrichment of 0.782 fold.
